Assay results of several laboratories.
Each numbered part is a random draw from the data of one study; scales do not carry over between parts.

Study 1 — method: universal PBM; molecule type: double-stranded DNA, one strand shown; matrix: in vitro; concentration: not given; direction: higher = stronger binding
Target: Sal-like protein 4, full length isoform B (SALL4, Homo sapiens, UniProt Q9UJQ4-2, residues 1-616)
Notes: 8-mer, flanks averaged, mean of replicates
Sequence	E-score
CCGCACTC	-0.214
ACACCTCA	-0.0525
ACCCAAAC	0.0245
GTCAACGA	-0.0897
AACTACAA	0.142
GTCTCGGA	-0.264
AAATTCAT	0.315

Study 2 — method: protein binding microarray; molecule type: double-stranded DNA, one strand shown; matrix: in vitro; concentration: not given; relative to: not given; direction: higher = stronger binding
Target: Histone acetyltransferase KAT6A, winged helix 2, GST fusion (KAT6A, Homo sapiens, UniProt Q92794, residues 85-181)
Notes: 8-mer, flanks averaged, mean of 2 arrays, mostly near background
Construct (chain): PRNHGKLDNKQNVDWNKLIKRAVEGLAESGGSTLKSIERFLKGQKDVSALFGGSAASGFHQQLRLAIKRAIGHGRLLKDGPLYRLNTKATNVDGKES
Sequence	E-score
CCTCTGCC	0.0202
GAGCCGAA	0.152
AGCGTGGC	0.048
TCAACGAA	0.123
AGTCTGAC	-0.257
GATCAGTA	0.105

Study 3 — method: competition protein-binding microarray; molecule type: double-stranded DNA, one strand shown; matrix: in vitro; concentration: 2 µM; with: Pho4 competitor, 0.05 µM; direction: higher = stronger binding; all sequences stand within: … GTCTTGATTCGCTTGACGCTGCTG
Target: Centromere-binding protein 1, full length, His-tagged (CBF1, Saccharomyces cerevisiae, UniProt P17106, residues 1-351)
Chain of UniProt P17106 (whole entry, looked up): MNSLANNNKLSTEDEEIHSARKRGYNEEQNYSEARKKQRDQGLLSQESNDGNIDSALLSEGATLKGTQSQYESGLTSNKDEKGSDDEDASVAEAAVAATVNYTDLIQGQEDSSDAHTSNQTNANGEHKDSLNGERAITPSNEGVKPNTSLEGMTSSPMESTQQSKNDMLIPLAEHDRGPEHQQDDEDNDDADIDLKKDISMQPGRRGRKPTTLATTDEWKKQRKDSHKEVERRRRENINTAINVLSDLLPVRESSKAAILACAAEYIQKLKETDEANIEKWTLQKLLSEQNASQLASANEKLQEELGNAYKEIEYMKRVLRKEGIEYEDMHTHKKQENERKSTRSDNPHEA
Notes: whole 60-bp probe, lowest competitor level
Sequence	fluorescence intensity
AACGACACCGGCACCTTCGTGACGGCCGACTAATGG	64.2 a.u.
GCGCAATACGTTAAGCTCGTGCTTTAGGTTTCGCCG	85.5 a.u.
CGTCCTAGCGATTGATGGGTGGGTGCCATGAGGAAG	65.8 a.u.
ATAGCAAAGAACCGTCACAGATTCATTATTGACCTT	116 a.u.
CGGGGTTAAGTTTGAACCGTGGGTGGCTTGCAGCAG	56.6 a.u.
CGGGGTTAAGTTTGTAAAGTGGGTGGCTTGCAGCAG	66 a.u.

Further values, each from its own experiment
Molecule	target	test	test system	setting	how to read	measurement	result
PhoQ, residues 284 288 289 292 302 303 TYGVAM	PhoP, residues 12 14 15 18 19 QYFSL (Escherichia coli, UniProt P23836)	Sort-seq, measured: YFP reporter	E. coli	PhoQ-PhoP variant library, with: 10 µM Mg2+	relative to: high Mg2+ state, higher = stronger signaling	fold induction	12.2
